Experimental data of several laboratories.
Every numbered part comes from another study and shows a few of its results, in no order.

Series 1
Target: Transcription factor SOX-2, HMG box (Sox2, Mus musculus, UniProt P48432, residues 41-119)
Chain of UniProt P48432 (41-119, looked up): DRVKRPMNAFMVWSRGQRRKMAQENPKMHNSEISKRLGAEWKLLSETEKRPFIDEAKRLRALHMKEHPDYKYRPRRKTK
Method: Spec-seq
Molecule type: double-stranded DNA, one strand shown
Sample: in vitro
Tested at: not given
Notes: whole probe, mean of replicates
Reference: not given
Direction: lower = stronger binding
Constant ends, left off below: GAGTCGTCTCGTCAGCAC … CCGTAGAGCACTCAGGTC
Sequence | relative binding energy [ln ratio]
GGTTGTT | 0.119
TATGGTT | -0.645
TACCGTT | 0.768
CCGAGTT | 1.25
CATTCTT | -1.8
CATGGCG | 0.227
ACTTGTT | -0.931
CATAATA | -1.58
CATTTCG | 0.302
ACGCGTT | 1.02
CATTCCT | 0.443
CATTTTT | -0.279
CATCGGA | 0.74

Series 2
Target: Histone acetyltransferase KAT6A, winged helix 1, GST fusion (KAT6A, Homo sapiens, UniProt Q92794, residues 1-85)
Method: protein binding microarray
Molecule type: double-stranded DNA, one strand shown
Sample: in vitro
Tested at: not given
Notes: 8-mer, flanks averaged, mean of 2 arrays, mostly near background
Reference: not given
Direction: higher = stronger binding
Construct (chain): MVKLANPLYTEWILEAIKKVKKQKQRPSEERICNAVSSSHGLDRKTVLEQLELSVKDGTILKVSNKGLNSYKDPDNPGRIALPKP
Sequence | E-score
CTGGCACA | -0.172
CAGGTATG | -0.105
AATAGCCT | -0.0907
ACCTGTAG | -0.0672
CAGTCCTA | -0.147
CTACAGAC | -0.178
ACGCTGGC | 0.133
CTACACGC | -0.00957
CTGATGAA | -0.168
AGGGACTC | 0.0322
CGTTATGC | 0.0134
CGTAATAC | 0.225
GGGTTAAA | 0.0405
CCGAGCCG | 0.389
GCGCTATA | 0.302
CCTTCAGA | -0.157
AATAAACT | 0.0159
ATACCTGA | -0.0174
ACAATTCG | -0.0345
CAGGGTAC | 0.0293

Series 3
Target: Centromere-binding protein 1, full length, His-tagged (CBF1, Saccharomyces cerevisiae, UniProt P17106, residues 1-351)
Chain of UniProt P17106 (whole entry, looked up): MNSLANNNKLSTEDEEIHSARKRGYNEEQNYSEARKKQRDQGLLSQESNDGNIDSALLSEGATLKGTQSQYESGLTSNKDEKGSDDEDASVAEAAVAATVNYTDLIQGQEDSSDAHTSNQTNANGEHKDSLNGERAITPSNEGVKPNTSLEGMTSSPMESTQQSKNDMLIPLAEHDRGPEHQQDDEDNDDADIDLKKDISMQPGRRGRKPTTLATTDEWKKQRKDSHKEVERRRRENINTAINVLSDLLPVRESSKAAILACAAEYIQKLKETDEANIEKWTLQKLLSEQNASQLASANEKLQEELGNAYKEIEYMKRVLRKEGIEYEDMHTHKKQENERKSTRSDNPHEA
Method: competition protein-binding microarray
Molecule type: double-stranded DNA, one strand shown
Sample: in vitro
Tested at: 2 µM
Notes: whole 60-bp probe, lowest competitor level
Together with: Pho4 competitor, 0.05 µM
Direction: higher = stronger binding
Sequence | fluorescence intensity [a.u.]
GAAAATGCTAATGCCCATGTGCGACTCATTCCGTTAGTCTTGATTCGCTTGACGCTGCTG | 75
TAGTATTCGATGTGTCTCGTGATGGCTTAATTTCAGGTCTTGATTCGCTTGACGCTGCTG | 811
CTTTCCCGATCTTGCCTCGTGGGTGTAGCACATTTGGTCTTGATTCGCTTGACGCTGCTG | 89.9
ACAGACCCCGAAGGAGCCGTGATGGACTTTACACCAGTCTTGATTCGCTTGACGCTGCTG | 60.1
GGCACTAGTTTGTGTCCCGTGGTGATTGCTGTATAAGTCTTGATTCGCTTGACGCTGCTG | 225
AAAGCGGTAATTTGTCGAGTGGGTGCAGATATCTATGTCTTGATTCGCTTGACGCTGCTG | 71
AAAGCGGTAATTTTTCACGTGCAGTCAAATATCTATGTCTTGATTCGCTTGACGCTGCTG | 1370
CTAACGAAGGTTTCCCACGTGTTTTACAAGCCAAGTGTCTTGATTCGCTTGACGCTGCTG | 832
CATACCCAACCTTGGGAGGTGGGTGAAGATATTTGTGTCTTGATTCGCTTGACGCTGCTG | 50.9
CTTTCCTTGGTCGCCGGCGTGACGGATTCGCTGGCGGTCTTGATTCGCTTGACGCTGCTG | 91.9
AACCGTAACGCTGATAACGTGGATTAGATCTTGGAGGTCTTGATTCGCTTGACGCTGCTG | 90.3
GATTGTGGAAAGAAGCATGTGGTTTTCAAAAATTGGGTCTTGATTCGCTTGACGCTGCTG | 183
AAATTACTAAGTTGTACGGTGGGTGACGCCGTATGAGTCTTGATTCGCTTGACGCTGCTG | 67.6
TTGTCTGTGCATTGGCATGCGCAAGCATTCGATGAAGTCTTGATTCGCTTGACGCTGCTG | 67
CTTCTCGCGGTGGTGCCCGTGGTTACTCCAGAGGTGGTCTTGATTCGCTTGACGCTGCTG | 66.3
TGCGCAACAACTTGCGAAGTGGGTGTATGTCTAGAAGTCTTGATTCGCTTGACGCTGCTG | 66
CTTTCCCGATCTTGGGTTGTGGGTGTAGCACATTTGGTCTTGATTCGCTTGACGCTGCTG | 77.4
GTCTTGTCTCATTGCTCGGTGGGTGTCCCCACTTCAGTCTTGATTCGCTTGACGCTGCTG | 92.6
ATGCAATTTTTTCACCACGTGCTAATTCTCTTTGTTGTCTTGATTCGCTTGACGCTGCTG | 2770
TCTAACCAATTGTTCCCCGTGAGATGCTTTCTCTGAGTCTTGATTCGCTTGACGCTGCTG | 96.8
CGTCCTAGCGATTGAGCTGTGGGTGCCATGAGGAAGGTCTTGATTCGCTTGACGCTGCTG | 63.1
AAGAATCTAAGCCAACACGCACAATAGACTCGAATGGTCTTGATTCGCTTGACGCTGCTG | 79.1
GTCTTGTCTCATTGACTCGTGGGTGTCCCCACTTCAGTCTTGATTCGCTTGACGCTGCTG | 84.1
AGCCAGCATTGTTGTCATGCGAGATGTCTAAGAAAAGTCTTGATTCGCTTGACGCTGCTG | 73.8
GGGAACTAGGCAAAGCACGGGTTTGGCGAGGCCGCTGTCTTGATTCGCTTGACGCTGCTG | 90.5

Series 4
Target: Interferon regulatory factor 7, full length, phosphomimetic (IRF7, Homo sapiens, UniProt Q92985, residues 1-503, S101K/S471D/S472D/S475D/S476D/S477D/S483D/S484D/S487D)
Chain of UniProt Q92985 (whole entry, unmodified, looked up): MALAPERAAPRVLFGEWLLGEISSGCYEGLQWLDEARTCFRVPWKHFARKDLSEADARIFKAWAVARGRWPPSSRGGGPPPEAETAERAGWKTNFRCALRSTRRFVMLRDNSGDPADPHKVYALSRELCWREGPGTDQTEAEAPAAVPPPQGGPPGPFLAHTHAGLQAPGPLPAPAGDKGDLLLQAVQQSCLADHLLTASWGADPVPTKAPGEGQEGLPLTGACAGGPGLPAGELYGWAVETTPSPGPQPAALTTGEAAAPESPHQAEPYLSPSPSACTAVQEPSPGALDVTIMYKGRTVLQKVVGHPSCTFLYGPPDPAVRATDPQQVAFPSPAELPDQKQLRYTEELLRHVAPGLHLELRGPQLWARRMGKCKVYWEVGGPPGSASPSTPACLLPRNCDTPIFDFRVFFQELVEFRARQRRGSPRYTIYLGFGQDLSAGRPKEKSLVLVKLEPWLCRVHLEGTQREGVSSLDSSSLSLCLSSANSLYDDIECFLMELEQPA
Method: protein-binding microarray
Molecule type: double-stranded DNA, one strand shown
Sample: in vitro
Tested at: 250 nM
Notes: 60-bp whole probe
Together with: salmon DNA 0.4 mg/ml
Reference: random background probes
Direction: higher = stronger binding
Constant ends, left off below: GCCTAGCAC … GTCTTGATTCGCTTGACGCTGCTG
Sequence | log fluorescence [z-score]
CTCCCCTTGCTTTCCAATTCGTGCTAG | 0.588
TTAGATATCCGGTATCGATTAGTGCTA | 1.34
GACGGACTGGGTTTTGGGACGTGCTAG | -0.579
TTGGGACTGGGGTATCGGTTAGTGCTA | -0.0661
GACGGTTTCGTTTCCCTGACGTGCTAG | 13.6
TTAGGTATCGACACTGGGCTAGTGCTA | -0.215
GACGGTATCGTTTTCGGGACGTGCTAG | 4.02
TCAGGTATCCTTCTCCTTTAGTGCTAG | 0.455
GACGGTCTCCTTTTCCTGTCGTGCTAG | 2.09
TGGGCTCTAGGTTCTCTGAAGGTGCTA | -0.23
GTCGGTCTCCTTTTCCTGACGTGCTAG | 2.32
TTAGGACTGGGAGTGGGTTAGTGCTAG | -0.371
TTAGGTTTCGGGTCTGGGTTAGTGCTA | 7.77
TTAGGTTTCGGTTTCGGCTAGTGCTAG | 14.3
GACGGACTGCCTTTCCTGACGTGCTAG | -0.469
TTAGATATCGGGACTCGATTAGTGCTA | 0.773
GACGATTGCAGACTGGAGACGTGCTAG | -0.562
ACCATTCTCGGGACTCACCTGGTGCTA | 0.989
TTAGAACTGGGACTGGGTTAGTGCTAG | -0.146
GACGATCTCGGTTTCGAGACGTGCTAG | 4.54
GACGGTTTCGGGTTTCAGGACGTGCTA | 11.2
TTAGGACTGGTTATCCTTTAGTGCTAG | 0.241

Series 5
Target: RNA binding protein fox-1 homolog 2, RRM domain, GST-SBP tag (RBFOX2, Homo sapiens, UniProt O43251-10, residues 100-194)
Method: RNA Bind-n-Seq
Molecule type: RNA
Sample: in vitro
Tested at: 365 nM
Notes: natural RNA segment, single round, ends assumed
Reference: no-protein control
Direction: higher = stronger binding
Target sequence (chain): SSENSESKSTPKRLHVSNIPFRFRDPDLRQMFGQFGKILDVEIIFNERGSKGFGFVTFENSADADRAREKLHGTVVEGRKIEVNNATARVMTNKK
Sequence | RBNS enrichment (R)
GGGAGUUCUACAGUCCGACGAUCUACACUAGUAUUUCUUAAAGCAGAGGUGAGUUGCGGAUAAGGUGGAUAAUAUGUGACUUUAGUCUAGUCUUCUCUGAGACUUUGAGACCCUUGGCUUGGCUGGUAUAAGUUGGAAUUCUCGGGUGCCAA | 0.776
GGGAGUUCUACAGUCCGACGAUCUGGCAUUUUUCUCUAGCGUUGUGGUGCCACCUUCCCUUCUUGUCCCAAGGUUAUAAGGCCUUGUCUUUCUCUUUGGAAUCAUAAAGUGGAACAGAGUCCCCAGAACUCAUUGGAAUUCUCGGGUGCCAA | 0.26
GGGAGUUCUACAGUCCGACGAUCAACUUGAUGCUCUACCUGCCACCAACCACCAGGACUGAAGGAAGGAAACAGUACUGAGGGCAAAGUUUACAGAUGUUUUUGAUUCUGGCAUUUUGUCCAGAACAGCUUGUUGGAAUUCUCGGGUGCCAA | 0.809
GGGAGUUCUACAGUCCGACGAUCCUCAUAUAGCCCUCAGUCACUGAGGGAGUCCCCCGCAGGAUUGGAGAGGCACAUUCCCUUGGGACAGAGGCUACAGGUUGGAGCUUUUUUUCCCCUGUCCCCCAACCCCAUGGAAUUCUCGGGUGCCAA | 0.379
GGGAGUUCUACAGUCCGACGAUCAUGAGCCUCGGCCAUCUCUCCCUCCUGCCCUCUGCUUGGGGGACUCAGGGCUCCAUUCUGGAGGGCACCACGGUGACCCGGGCCAUCUCAGUAUUGCCUGUGGGGGCCACUGGAAUUCUCGGGUGCCAA | 0.388
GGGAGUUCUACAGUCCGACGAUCAGAGAAGACCACACCAAGGAGGCGGCCGCUGGCCCAGGAGAGAACACGGGGAGGUUUGUUUGUGUGAAAGGAAAGUAGUCCAGGCUGUCCCUGAAACUGAGUCUGUGGACUGGAAUUCUCGGGUGCCAA | 1.1
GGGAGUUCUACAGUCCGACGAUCAUGAAAUAAAAAAAAAAAGGAUGGGUUUUGUAAAAAUAAUAAAAAAAAUAUUUUUAGCAGAACAGGACUUACAGGGUCAUUGUCCCCACAAUGUGCCAGUCGGCUCUUUGUGGAAUUCUCGGGUGCCAA | 0.886
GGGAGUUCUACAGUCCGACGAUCAUUAGAAAAGGCUUAUGUUAGCAUAGCUUAAGAGCAACCUCAGAGAUUUGAGCCCUACUAAGUGACUGACCACUGUUUAGAGUGUCUGGUAUCUGAUGUUCAUUUAUUCCUGGAAUUCUCGGGUGCCAA | 0.359
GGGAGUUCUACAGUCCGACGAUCCAGGCACACACCCUGCCCAUUGCAGGUGGCUCUUACAGCUCUCUGGUGCCAGCACGGGAUCCCUGAAGUGACUCAGCCAGGCAGACAUGAGACAUGGCGGAGUGUCCAAAUGGAAUUCUCGGGUGCCAA | 1.11
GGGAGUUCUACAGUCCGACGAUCAUUCAUUCAGCGAAUGCUCAAGACAAGCCAGGCAUGCUGAGAAGCGGCGCUCUAGUUGUAUGUAAGAUGGGCAUUCCUCUGCUCUCCUCUAUUCUCCAUGUCGACUGAGAUGGAAUUCUCGGGUGCCAA | 0.386
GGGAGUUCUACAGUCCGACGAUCAGGAAAGACAAAAGACUUGAAGCACCGGGUGCAUGCUGUGUGUCACAAGUGAGGUGGAGAGUUGGCUGUGGAAGGUACAGCAAUUCCUCUGGAAUUAAAUGACCGACCAAUGGAAUUCUCGGGUGCCAA | 3.97
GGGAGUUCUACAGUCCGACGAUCAGAGCUCUAUGGUGUUCCUGAAGACACAAAGGAGCAAGAGACCAGCCAUGUGGAGAACAAUGGUAUUAAUCCAUACUGGGGGGAGACUUUCUAUUUCCGGCUCCAGGUACUGGAAUUCUCGGGUGCCAA | 0.343

Single results of other studies
Substance | target | assay | system | conditions | how to read | endpoint | value
PhoQ, residues 284 288 289 292 302 303 ALAMYF | PhoP, residues 12 14 15 18 19 VGHWL (Escherichia coli, UniProt P23836) | Sort-seq, measured: YFP reporter | E. coli | PhoQ-PhoP variant library, together with: 10 µM Mg2+ | reference: high Mg2+ state, higher = stronger signaling | fold induction | 1.76

Excerpt of the above (series 1):
Sequence | relative binding energy [ln ratio]
ACTTGTT | -0.931
CATAATA | -1.58
CATTCTT | -1.8
CATGGCG | 0.227
CATTCCT | 0.443
TACCGTT | 0.768
CATCGGA | 0.74
GGTTGTT | 0.119
CCGAGTT | 1.25
ACGCGTT | 1.02
CATTTCG | 0.302
CATTTTT | -0.279
TATGGTT | -0.645
